Measurements pooled from the literature.
Protocols differ between the studies behind these lines. ± gives the spread as reported.
Gria2/Glutamate receptor 3: Gria2/Glutamate receptor 3 (Rattus norvegicus, UniProt P19491+P19492)
Chain of UniProt P19491 (whole entry, looked up): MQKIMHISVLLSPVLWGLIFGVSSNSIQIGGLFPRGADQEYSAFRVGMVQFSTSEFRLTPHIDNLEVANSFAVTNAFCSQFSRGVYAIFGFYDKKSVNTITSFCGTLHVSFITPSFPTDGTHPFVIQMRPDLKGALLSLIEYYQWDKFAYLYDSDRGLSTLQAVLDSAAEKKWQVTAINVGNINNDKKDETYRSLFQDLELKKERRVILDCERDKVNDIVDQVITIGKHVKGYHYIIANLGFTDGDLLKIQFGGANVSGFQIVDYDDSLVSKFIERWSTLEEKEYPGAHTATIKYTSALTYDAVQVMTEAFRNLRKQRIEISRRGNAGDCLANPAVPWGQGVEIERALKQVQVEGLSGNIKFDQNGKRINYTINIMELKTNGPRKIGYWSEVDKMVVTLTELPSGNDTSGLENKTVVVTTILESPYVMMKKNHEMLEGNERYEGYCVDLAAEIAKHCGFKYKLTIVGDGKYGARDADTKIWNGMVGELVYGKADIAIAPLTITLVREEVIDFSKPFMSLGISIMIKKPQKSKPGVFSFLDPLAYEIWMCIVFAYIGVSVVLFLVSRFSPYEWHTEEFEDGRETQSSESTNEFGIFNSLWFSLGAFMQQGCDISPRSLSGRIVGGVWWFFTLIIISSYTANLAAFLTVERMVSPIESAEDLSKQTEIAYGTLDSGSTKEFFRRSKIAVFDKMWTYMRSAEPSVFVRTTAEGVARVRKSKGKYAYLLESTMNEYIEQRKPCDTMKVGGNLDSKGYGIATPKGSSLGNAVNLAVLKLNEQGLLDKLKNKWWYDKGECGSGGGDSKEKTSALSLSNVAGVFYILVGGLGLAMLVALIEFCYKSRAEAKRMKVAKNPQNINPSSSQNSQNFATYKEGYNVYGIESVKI
Chain of UniProt P19492 (whole entry, looked up): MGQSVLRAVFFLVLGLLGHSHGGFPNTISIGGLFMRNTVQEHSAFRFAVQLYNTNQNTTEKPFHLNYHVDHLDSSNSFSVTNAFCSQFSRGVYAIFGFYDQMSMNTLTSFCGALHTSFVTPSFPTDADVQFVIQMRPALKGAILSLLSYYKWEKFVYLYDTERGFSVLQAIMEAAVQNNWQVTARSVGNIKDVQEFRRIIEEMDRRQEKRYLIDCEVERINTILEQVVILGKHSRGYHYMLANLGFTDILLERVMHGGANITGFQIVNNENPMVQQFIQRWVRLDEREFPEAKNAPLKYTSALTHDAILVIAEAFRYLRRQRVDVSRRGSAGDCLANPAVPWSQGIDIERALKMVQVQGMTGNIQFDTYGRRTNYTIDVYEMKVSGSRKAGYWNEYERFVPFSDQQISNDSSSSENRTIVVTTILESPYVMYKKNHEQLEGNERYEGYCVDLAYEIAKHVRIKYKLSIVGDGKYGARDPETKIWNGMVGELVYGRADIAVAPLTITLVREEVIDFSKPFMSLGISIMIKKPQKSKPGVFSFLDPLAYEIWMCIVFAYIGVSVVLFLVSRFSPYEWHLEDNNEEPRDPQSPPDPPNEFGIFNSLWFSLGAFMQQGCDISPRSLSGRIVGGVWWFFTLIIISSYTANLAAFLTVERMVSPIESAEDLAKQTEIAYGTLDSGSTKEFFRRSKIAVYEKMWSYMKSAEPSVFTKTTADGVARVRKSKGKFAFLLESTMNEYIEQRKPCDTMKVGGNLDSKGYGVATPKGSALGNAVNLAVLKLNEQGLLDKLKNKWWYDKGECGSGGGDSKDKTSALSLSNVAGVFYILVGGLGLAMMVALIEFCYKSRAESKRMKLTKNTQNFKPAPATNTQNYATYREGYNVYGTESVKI
Chain of UniProt P68400 (whole entry, looked up): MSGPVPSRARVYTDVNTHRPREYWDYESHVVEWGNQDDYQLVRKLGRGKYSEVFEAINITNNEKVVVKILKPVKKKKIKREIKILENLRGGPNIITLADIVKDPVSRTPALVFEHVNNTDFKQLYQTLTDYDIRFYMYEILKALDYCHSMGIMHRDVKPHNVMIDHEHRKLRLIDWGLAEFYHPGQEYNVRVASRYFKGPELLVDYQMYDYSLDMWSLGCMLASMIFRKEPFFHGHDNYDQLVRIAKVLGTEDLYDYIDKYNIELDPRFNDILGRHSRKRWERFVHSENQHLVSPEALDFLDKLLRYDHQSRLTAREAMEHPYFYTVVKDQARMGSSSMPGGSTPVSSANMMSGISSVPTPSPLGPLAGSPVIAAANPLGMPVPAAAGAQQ
Chain of UniProt P23443 (whole entry, looked up): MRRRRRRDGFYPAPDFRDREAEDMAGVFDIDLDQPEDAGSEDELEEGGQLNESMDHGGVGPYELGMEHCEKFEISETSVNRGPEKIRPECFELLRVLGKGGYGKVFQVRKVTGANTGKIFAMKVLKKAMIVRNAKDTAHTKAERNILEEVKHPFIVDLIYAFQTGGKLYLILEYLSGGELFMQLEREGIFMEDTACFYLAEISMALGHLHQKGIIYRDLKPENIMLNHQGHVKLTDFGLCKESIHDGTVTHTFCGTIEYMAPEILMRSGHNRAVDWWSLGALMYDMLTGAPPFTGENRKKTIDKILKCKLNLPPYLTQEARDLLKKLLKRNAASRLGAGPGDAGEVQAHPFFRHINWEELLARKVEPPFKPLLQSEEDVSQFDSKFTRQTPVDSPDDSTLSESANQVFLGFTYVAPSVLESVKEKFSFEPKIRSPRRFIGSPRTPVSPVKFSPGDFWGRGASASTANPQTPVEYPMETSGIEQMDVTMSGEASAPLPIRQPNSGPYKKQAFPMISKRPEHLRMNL
Chain of UniProt P14902 (whole entry, looked up): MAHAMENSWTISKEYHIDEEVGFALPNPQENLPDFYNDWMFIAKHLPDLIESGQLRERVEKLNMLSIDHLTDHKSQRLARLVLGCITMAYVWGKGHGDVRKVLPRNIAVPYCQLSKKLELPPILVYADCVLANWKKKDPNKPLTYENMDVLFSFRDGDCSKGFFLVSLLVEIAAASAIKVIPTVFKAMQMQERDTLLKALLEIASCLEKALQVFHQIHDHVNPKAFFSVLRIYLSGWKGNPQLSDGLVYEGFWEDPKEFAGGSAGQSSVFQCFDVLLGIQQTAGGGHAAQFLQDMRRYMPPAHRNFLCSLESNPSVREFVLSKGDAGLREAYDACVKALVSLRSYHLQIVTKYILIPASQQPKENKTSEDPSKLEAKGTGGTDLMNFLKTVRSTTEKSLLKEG
Chain of UniProt P93836 (whole entry, looked up): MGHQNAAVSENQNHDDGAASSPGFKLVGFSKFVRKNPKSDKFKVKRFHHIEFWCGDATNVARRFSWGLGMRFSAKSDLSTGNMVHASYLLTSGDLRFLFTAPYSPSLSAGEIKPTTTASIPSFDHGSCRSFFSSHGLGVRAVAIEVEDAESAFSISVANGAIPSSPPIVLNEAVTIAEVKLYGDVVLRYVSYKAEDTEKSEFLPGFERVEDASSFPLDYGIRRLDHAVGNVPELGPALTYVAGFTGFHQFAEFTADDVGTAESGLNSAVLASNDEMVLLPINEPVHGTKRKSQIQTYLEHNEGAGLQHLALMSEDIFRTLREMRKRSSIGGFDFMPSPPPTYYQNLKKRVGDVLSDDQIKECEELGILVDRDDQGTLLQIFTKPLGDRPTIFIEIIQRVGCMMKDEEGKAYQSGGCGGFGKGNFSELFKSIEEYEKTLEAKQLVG
Chain of UniProt P34914 (whole entry, looked up): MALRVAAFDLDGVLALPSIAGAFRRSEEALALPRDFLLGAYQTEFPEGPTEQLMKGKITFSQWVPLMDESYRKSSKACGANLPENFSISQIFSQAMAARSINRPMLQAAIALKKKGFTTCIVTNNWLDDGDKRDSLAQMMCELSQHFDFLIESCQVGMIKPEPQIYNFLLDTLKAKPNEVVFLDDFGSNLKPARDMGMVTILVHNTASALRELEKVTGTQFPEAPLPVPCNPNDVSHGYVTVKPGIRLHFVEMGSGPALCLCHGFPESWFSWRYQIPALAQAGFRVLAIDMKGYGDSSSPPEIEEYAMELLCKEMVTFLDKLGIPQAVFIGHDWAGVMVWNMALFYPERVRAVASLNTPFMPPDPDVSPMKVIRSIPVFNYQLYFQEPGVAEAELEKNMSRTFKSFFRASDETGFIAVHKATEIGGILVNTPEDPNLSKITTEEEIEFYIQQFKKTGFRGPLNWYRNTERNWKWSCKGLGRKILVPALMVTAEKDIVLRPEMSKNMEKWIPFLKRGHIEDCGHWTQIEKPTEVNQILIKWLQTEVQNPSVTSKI
Chain of UniProt P48729 (whole entry, looked up): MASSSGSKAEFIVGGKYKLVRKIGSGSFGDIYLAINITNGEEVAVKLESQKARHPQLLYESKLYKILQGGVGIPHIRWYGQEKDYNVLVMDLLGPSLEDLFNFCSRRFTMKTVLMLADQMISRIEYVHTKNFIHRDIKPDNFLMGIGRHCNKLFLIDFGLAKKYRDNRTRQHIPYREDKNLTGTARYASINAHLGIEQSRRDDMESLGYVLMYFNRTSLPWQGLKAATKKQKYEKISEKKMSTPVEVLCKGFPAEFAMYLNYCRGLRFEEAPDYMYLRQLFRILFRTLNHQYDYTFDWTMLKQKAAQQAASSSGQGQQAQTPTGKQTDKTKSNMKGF
Chain of UniProt P11229 (whole entry, looked up): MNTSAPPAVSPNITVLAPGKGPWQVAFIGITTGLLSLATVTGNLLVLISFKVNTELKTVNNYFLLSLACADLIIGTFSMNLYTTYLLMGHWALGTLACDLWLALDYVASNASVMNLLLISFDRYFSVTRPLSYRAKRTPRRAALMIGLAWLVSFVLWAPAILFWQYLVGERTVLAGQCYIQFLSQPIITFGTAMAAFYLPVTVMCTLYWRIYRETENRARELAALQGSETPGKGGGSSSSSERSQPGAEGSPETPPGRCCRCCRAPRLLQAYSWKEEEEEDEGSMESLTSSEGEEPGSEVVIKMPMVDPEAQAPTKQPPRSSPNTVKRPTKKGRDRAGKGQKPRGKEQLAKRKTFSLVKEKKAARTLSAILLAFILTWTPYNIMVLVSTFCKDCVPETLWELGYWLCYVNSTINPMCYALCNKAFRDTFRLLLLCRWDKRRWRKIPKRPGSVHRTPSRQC

Compound	tested on	test	system	setting	how to read	measurement	result
COC1CN([C@H]2CC[C@H]([C@@]3(C)Oc4c(Cl)cc(C(=O)NCc5c(SC)cc(C)[nH]c5=O)c(C)c4O3)CC2)C1	–	RNA-seq, measured: DYNC2H1	human, whole blood	dose not given, 24 h	relative to: pretreatment baseline	log2 fold change	1.48
CCC(=O)N1CCC(NC(=O)Nc2cccc(OC(F)(F)F)c2)CC1	Bifunctional epoxide hydrolase 2 (Ephx2, Mus musculus, UniProt P34914)	enzyme activity, inhibitor	–	–	–	IC50	≥ 10000 nM
Cc1oc(C)c(-c2ccc(N(CC(C)C)CC(C)C)c(NC(=O)Nc3ccc(B(O)O)cc3)c2)c1C(=O)O	Indoleamine 2,3-dioxygenase 1 (IDO1, Homo sapiens, UniProt P14902)	enzyme activity, inhibitor, recombinant enzyme, measured: kynurenine	–	20 min, 2% DMSO, together with: L-tryptophan	–	IC50	53000 ± 6000 nM
O=C(CCNC(=O)CNC(=O)CC(c1ccccc1)(c1ccccc1)c1ccccc1)NC[C@@H]1CCCN(Cc2ccc3cc(F)ccc3c2)C1	Muscarinic acetylcholine receptor M1 (CHRM1, Homo sapiens, UniProt P11229)	ligand displacement, radioligand	–	cell membranes	–	IC50	18000 nM
COc1cccc(COc2ccc(Nc3ncnc4ccc(-c5ccc(S(=O)(=O)N6CCOCC6)cc5)cc34)cc2Cl)c1	Leishmania major	intracellular amastigote growth, luciferase	RAW264.7 macrophages	–	–	EC50	> 15 µM
CCOc1cc(CN2CCC3(CC2)CN(c2ccc(C(=O)O)cc2)C(=O)N3)c(C2CC2)cc1C	Somatostatin receptor type 5 (SSTR5, Homo sapiens, UniProt P35346, Q99A)	cAMP level, antagonist, GloSensor	AD293	Q99A mutant, bandwidth 2.63, together with: CST17 EC80 and forskolin	–	IC50	24.5 nM
Cc1cc(-c2ccc(S(=O)(=O)C3CC(C(=O)NC4(C#N)CC4)N(C(=O)C4(C(F)(F)F)CC4)C3)c(C(F)(F)F)c2)ccn1 (centres unmarked)	Cathepsin S (CTSS, Homo sapiens, UniProt P25774)	enzyme activity, inhibitor, fluorescence	–	–	–	IC50	2.18 nM
O=C(O)Cc1cc2c(cc1C(=O)c1ccccc1Br)OCO2	Gria2/Glutamate receptor 3	ion current, patch clamp	–	–	–	IC50	4620 nM
Cc1nn(-c2cccc(N)c2)c(=O)c2cnc(Nc3ccc(N4CCNCC4)cc3)nc12	Ribosomal protein S6 kinase beta-1 (RPS6KB1, Homo sapiens, UniProt P23443)	enzyme activity, inhibitor	–	–	–	IC50	> 10000 nM
COc1ccc(Nc2cc(NC3CC3)n3ncc(C#N)c3n2)cc1	Casein kinase II subunit alpha (CSNK2A1, Homo sapiens, UniProt P68400)	target engagement in cells, BRET	–	–	–	IC50	2200 nM
COC(=O)Cc1cc2c(cc1C(=O)c1ccccc1Cl)OCO2	Gria2/Glutamate receptor 3	ion current, antagonist, patch clamp	–	–	–	IC50	5370 nM
COc1ccc(CNC(=O)c2cnc3c(c(C)nn3C)c2Cl)cc1	60 kDa heat shock protein, mitochondrial, with HSP10 (Homo sapiens, UniProt P10809)	HSP60/10-mediated MDH refolding	–	5 min, preincubation before ATP, together with: denatured malate dehydrogenase	–	IC50	27000 nM
C[n+]1cccc2cc(/C=N/NC(=O)c3cccc(C(=O)N/N=C/c4ccc5c(ccc[n+]5C)c4)n3)ccc21	MYC parallel G4 DNA	FRET melting	–	1 µM, DNA 0.2 µM, together with: duplex DNA competitor 10 µM	–	ΔTm	8.8 ± 0.3 °C
CCCCCOc1ccc(-c2ccc3ncnc(Nc4ccc(OCc5cccc(F)c5)c(Cl)c4)c3c2)c(F)c1F	Leishmania major	intracellular amastigote growth, luciferase	RAW264.7 macrophages	–	–	EC50	> 15 µM
CC[C@H]1CN(C(c2cccc(C(F)(F)F)c2)c2nc(C(F)(F)F)nn2C)[C@H](CC)CN1c1nc(=O)n(C)c2ccc(C#N)nc12 (some centres unmarked)	Diacylglycerol kinase zeta (DGKZ, Homo sapiens, UniProt Q13574)	lipid kinase activity, inhibitor, ADP-Glo	–	–	–	IC50	4 nM
CN1CC[C@@H](COc2cnc(C#N)cc2-c2ccn3nc(NC(=O)C4CC4)cc3c2)C1	Serine/threonine-protein kinase SIK1 (SIK1, Homo sapiens, UniProt P57059)	ADP-Glo	–	together with: ATP 3 mM	–	IC50	128 nM
Nc1ncc(-c2cc(-c3cnn(CC(F)(F)F)c3)ncc2F)nc1C(=O)NC1CNCC(F)C1 (centres unmarked)	Proto-oncogene tyrosine-protein kinase ROS (ROS1, Homo sapiens, UniProt P08922)	enzyme activity, inhibitor, radiometric	–	–	–	IC50	209 nM
CC1CCC2C(C)C(OC(=O)CCC(=O)OCCOC(=O)N3CCC(Nc4ccc(S(=O)(=O)NC(=O)c5ccc(N6CCN(CC7=C(c8ccc(Cl)cc8)CC(C)(C)CC7)CC6)cc5Oc5cnc6[nH]ccc6c5)cc4[N+](=O)[O-])CC3)OC3OC4(C)CCC1C32OO4 (centres unmarked)	Apoptosis regulator Bcl-2 (BCL2, Homo sapiens, UniProt P10415)	ligand displacement, FP	–	–	–	IC50	594 nM
O=C1CCCC(=O)C1C(=O)c1nc2c(Cl)cccc2n(-c2ccc(O)cc2)c1=O	4-hydroxyphenylpyruvate dioxygenase (HPD, Arabidopsis thaliana, UniProt P93836)	enzyme activity, inhibitor, absorbance	–	–	–	IC50	170 nM
c1ccc(-c2n[nH]cc2-c2ccnc3ccccc23)nc1	Casein kinase I isoform alpha (CSNK1A1, Homo sapiens, UniProt P48729)	enzyme activity, inhibitor, ADP-Glo kinase	–	together with: ATP 10 µM	–	IC50	1000 nM

A few entries again:
Compound	tested on	test	system	setting	how to read	measurement	result
CCCCCOc1ccc(-c2ccc3ncnc(Nc4ccc(OCc5cccc(F)c5)c(Cl)c4)c3c2)c(F)c1F	Leishmania major	intracellular amastigote growth, luciferase	RAW264.7 macrophages	–	–	EC50	> 15 µM
CC[C@H]1CN(C(c2cccc(C(F)(F)F)c2)c2nc(C(F)(F)F)nn2C)[C@H](CC)CN1c1nc(=O)n(C)c2ccc(C#N)nc12 (some centres unmarked)	Diacylglycerol kinase zeta (DGKZ, Homo sapiens, UniProt Q13574)	lipid kinase activity, inhibitor, ADP-Glo	–	–	–	IC50	4 nM
